Results pooled from the literature.
Protocols differ between the studies behind these lines.
Cell line: HT-29

N=C(N)NCCC[C@H](NC(=O)[C@H](Cc1c[nH]c2ccccc12)NC(=O)[C@H](CCC(N)=O)NC(=O)[C@H](Cc1c[nH]c2ccccc12)NC(=O)[C@H](CCCNC(=N)N)NC(=O)[C@H](Cc1c[nH]c2ccccc12)NC(=O)[C@H](CCC(N)=O)NC(=O)[C@H](Cc1c[nH]c2ccccc12)NC(=O)[C@@H](N)CCCNC(=N)N)C(N)=O  IC50 (cell growth or viability, MTT): 100 µM
CC(=O)O[C@H]1C(=O)[C@@]2(C)[C@H]([C@H](OC(=O)c3ccccc3)[C@]3(O)C[C@H](OC(=O)[C@H](O)[C@@H](NC(=O)c4ccccc4)c4ccccc4)C(C)=C1C3(C)C)[C@]1(OC(C)=O)CO[C@@H]1C[C@@H]2O  IC50 (cytotoxicity): 0.001 µM
COc1ccc2c(c1)c(CC(=O)O)c(C)n2C(=O)c1ccc(Cl)cc1  IC50 (cell growth or viability, thymidine uptake; 72 h): 136 µM
COc1cc2oc3c(C)c(OC)c(CC=C(C)C)c(O)c3c(=O)c2c(CC=C(C)C)c1OC  IC50 (cell growth or viability, fluorescence; 2 h): 1.4 µM
COc1ccc(/C=C/C(=O)/C=C2/C(=O)Nc3cc(Br)ccc32)cc1  IC50 (cell viability, MTT; 24 h): 1.4 µM
CC(C)[C@H]1CC[C@]2(C)C(=O)CCC(C=O)=C[C@H]12  IC50 (cytotoxicity): > 20 µM
CSc1ccc(/C=C2/C(C)=C(CC(=O)O)c3cc(F)ccc32)cc1  IC50 (cell proliferation, tritiated thymidine incorporation; 72 h): 34 µM
CC(C)=C[C@H]1OC[C@@H]([C@H]2CC[C@@]3(C)[C@@H]4CC[C@H]5C(C)(C)[C@@H](O)CC[C@@]56C[C@@]46CC[C@]23C)[C@@H]1O  IC50 (cell growth or viability): > 10 µM
Cc1c(N)nc([C@H](CC(N)=O)NC[C@H](N)C(N)=O)nc1C(=O)N[C@H](C(=O)N[C@H](C)[C@@H](O)[C@H](C)C(=O)N[C@H](C(=O)NCCC1=N[C@@H](c2nc(C(=O)NCCCCN=C(N)N)cs2)CS1)[C@@H](C)O)[C@@H](O[C@@H]1O[C@@H](CO)[C@@H](O)[C@H](O)[C@@H]1O[C@H]1O[C@H](CO)[C@@H](O)[C@H](OC(N)=O)[C@@H]1O)c1cnc[nH]1  IC50 (cell growth or viability, resazurin; 96 h): 1.32 mg/L
CSc1ccc(/C=C2/C(C)=C(CC(=O)O)c3cc(F)ccc32)cc1  IC50 (cell growth or viability, thymidine uptake): 33.9 µM
COc1cc2oc3cc(OC)c(OC)c(CC=C(C)C)c3c(=O)c2c(O)c1CC=C(C)C  IC50 (cytotoxicity, sulforhodamine B; 72 h): > 20 µM
COc1ccc(/C=C/C(/C=C2/C(=O)Nc3cc(Br)ccc32)=N\O)cc1  IC50 (cell growth or viability, MTT; 24 h): 3.9 µM
CC1(C)CC[C@]2(C(=O)O)CC[C@]3(C)C(=CC[C@@H]4[C@@]5(C)CC[C@H](O)C(C)(C)[C@@H]5CC[C@]43C)[C@@H]2C1  IC50 (cell growth or viability, resazurin; 96 h): 0.89 mg/L
CC(C)=CCC/C(C)=C/Cc1c(O)c(CC=C(C)C)c(O)c2c(=O)c3cc(O)ccc3oc12  IC50 (cytotoxicity, sulforhodamine B; 72 h): 16.1 µM

Repeated from above:
CC(C)[C@H]1CC[C@]2(C)C(=O)CCC(C=O)=C[C@H]12  IC50 (cytotoxicity): > 20 µM
CSc1ccc(/C=C2/C(C)=C(CC(=O)O)c3cc(F)ccc32)cc1  IC50 (cell proliferation, tritiated thymidine incorporation; 72 h): 34 µM
